# Measurements of several laboratories.
# Protocols differ between the studies behind these lines. Values joined by “and” are separate records of one study, mostly repeats; a detail may differ. ± gives the spread as reported.
# TDP1: Tyrosyl-DNA phosphodiesterase 1 (TDP1, Homo sapiens, UniProt Q9NUW8)
# UniProt Q9NUW8, sequence (whole entry, looked up): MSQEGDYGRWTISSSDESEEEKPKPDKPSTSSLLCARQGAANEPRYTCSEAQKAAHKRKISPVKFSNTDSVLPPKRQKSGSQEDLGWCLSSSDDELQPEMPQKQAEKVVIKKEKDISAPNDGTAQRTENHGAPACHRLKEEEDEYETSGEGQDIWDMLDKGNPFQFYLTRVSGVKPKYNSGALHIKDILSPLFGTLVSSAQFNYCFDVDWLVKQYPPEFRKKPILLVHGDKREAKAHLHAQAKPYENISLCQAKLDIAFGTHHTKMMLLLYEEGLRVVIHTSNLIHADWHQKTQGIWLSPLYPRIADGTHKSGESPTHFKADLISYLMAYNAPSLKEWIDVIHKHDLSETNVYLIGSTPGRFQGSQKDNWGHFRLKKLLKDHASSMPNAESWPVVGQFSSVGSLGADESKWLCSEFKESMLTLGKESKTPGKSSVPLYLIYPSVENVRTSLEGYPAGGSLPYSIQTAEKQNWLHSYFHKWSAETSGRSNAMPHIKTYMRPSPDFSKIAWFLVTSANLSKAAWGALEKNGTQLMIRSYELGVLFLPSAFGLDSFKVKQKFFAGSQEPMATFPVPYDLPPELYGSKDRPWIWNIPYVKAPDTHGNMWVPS
SMILES,target or system,assay,test system,setting,how to read,measurement,value
CC[C@H](C)[C@@H](C(=O)N[C@@H](CC(C)C)C(=O)N[C@@H](CO)C(=O)N[C@@H](CO)C(=O)N[C@H](C(=O)N[C@@H](CCC(=O)O)C(=O)N[C@H](C(=O)NCC(=O)N[C@@H](CO)C(=O)NCC(=O)N[C@H](C(=O)N1C[C@H](O)C[C@H]1C(N)=O)[C@@H](C)O)C(C)C)[C@@H](C)O)N(C)C(=O)[C@H](C)NC(=O)CN(C)C(=O)[C@H](Cc1ccccc1)NC(=O)[C@H](CO)NC(=O)[C@H](CO)NC(=O)[C@H](CCCNC(=N)N)NC(=O)[C@H](CCC(N)=O)NC(=O)[C@H](CC(C)C)NC(=O)[C@H](Cc1ccccc1)NC(=O)[C@H](Cc1c[nH]cn1)NC(=O)[C@H](C)NC(=O)[C@H](CC(C)C)NC(=O)[C@H](CCCNC(=N)N)NC(=O)[C@H](CCC(N)=O)NC(=O)[C@@H](NC(=O)[C@H](C)NC(=O)[C@@H]1CSSC[C@H](NC(=O)[C@H](CCCNC(=N)N)NC(=O)CC[C@H](NC(=O)CCCCCCCCCCCCCCCCCCC(=O)O)C(=O)O)C(=O)N[C@@H](CC(N)=O)C(=O)N[C@@H]([C@@H](C)O)C(=O)N[C@@H](C)C(=O)N[C@@H]([C@@H](C)O)C(=O)N1)[C@@H](C)O,,,male Sprague-Dawley rats,"subcutaneous, 30 nmol/kg single dose, 24 h",relative to: vehicle,food intake,77.3 ± 3.8%
FCCOCCOCCOCCn1cc(COc2ccc(-c3nncnn3)cc2)nn1,,,DPBS,"37 °C, added: TCO-PEG4",,second order rate constant,39000 ± 2500 M⁻¹ s⁻¹
CCCC[N+]1=c2cc3c4cc2[O][Mn-2]1(=[C]=O)(=[C]=O)(=[C]=O)[n+]1ccc(cc1)C(=O)Oc1ccccc1OC(=O)c1cc[n+](cc1)[Mn-2](=[C]=O)(=[C]=O)(=[C]=O)([O]3)[N+]=4CCCC,,myoglobin,equine heart myoglobin,added: green LED light,,apparent CO release rate constant,0.000753 s⁻¹
CC(=O)N1N=C(Nc2ccc(-c3ccc(NC4=NN(C(C)=O)C(c5ccccc5)C4)cc3)cc2)CC1c1ccccc1 (centres unmarked),,carrageenan paw oedema,albino rat,"oral, 50 mg/kg, 3 h",relative to: vehicle,inhibition,23.3%
CN1CCC[C@]1(C)/C=C/S(=O)(=O)NC(=O)Nc1c2c(cc3c1CCC3)CCC2,,,"human, whole blood ex vivo","100 mg twice daily, day 14, 12 h, multiple ascending dose, added: LPS and ATP",,IL-1β inhibition,99.7%
COc1cc(O)ccc1CCC(c1ccc(O)cc1)c1cc2c(c(C)c1O)OC(c1ccc(O)cc1)CC2 (mixture of isomers),,refers to: PGD2,human whole blood,"30 µM, added: Escherichia coli",,amount,162 ± 76 pg/mL blood
Cc1ncsc1-c1ccc(C(C)NC(=O)C2CC(O)CN2C(=O)C(NC(=O)CCCCCCCCCCN2CCCC(Nc3ncc(Cl)c(Nc4ccccc4S(=O)(=O)C(C)C)n3)C2)C(C)(C)C)cc1 (centres unmarked),22Rv1,"RNA-seq, refers to: ZSWIM9 mRNA",,concentration not given,relative to: DMSO,log2 fold change,-3.18
CC(C)C[C@H](NC(=O)CNC(=O)[C@H](CCC(N)=O)NC(=O)[C@H](CC(C)C)NC(=O)[C@H](CC(C)C)NC(=O)[C@H](CCCNC(=N)N)NC(=O)[C@H](CCC(N)=O)NC(=O)[C@H](CC(C)C)NC(=O)[C@H](CCCNC(=N)N)NC(=O)[C@H](C)NC(=O)CNC(=O)[C@H](CCC(=O)O)NC(=O)[C@H](CCCNC(=N)N)NC(=O)[C@H](CC(C)C)NC(=O)[C@H](CCCNC(=N)N)NC(=O)[C@H](CO)NC(=O)[C@H](CC(C)C)NC(=O)[C@H](CCC(=O)O)NC(=O)[C@H](CO)NC(=O)[C@@H](NC(=O)[C@H](Cc1ccccc1)NC(=O)[C@@H](NC(=O)CNC(=O)[C@H](CC(=O)O)NC(=O)C(C)(C)NC(=O)[C@@H](N)Cc1c[nH]cn1)[C@@H](C)O)[C@@H](C)O)C(=O)N[C@@H](CC(C)C)C(=O)N[C@@H](CCC(N)=O)C(=O)NCC(=O)N[C@@H](CC(C)C)C(=O)N[C@H](C(=O)NCC(=O)N[C@@H](CCCCNC(=O)COCCOCCNC(=O)COCCOCCNC(=O)CC[C@H](NC(=O)CCCCCCCCCCCCCCCCC(=O)O)C(=O)O)C(N)=O)C(C)C,,cAMP reporter gene,"CRE-Luc mouse, stomach homogenate","subcutaneous, 300 nmol/kg, 6 h",relative to: vehicle,luciferase induction,5 fold
COc1cnc2cccc(N3CCc4c(cc(Cn5ccnc5)cc4-c4cn(C)nc4C(F)(F)F)C3=O)c2c1,,,"BALB/c nude mice, MV4-11 xenograft","intraperitoneal, 75 mg/kg, day 21",,tumour volume,143 mm3 and 138 mm3 and 141 mm3 and 151 mm3 and 127 mm3 and 134 mm3
CC(CCC(=O)NCc1ccc(C(=O)NO)cc1)C1CCC2C3C(O)CC4CC(O)CCC4(C)C3CCC12C (centres unmarked),,refers to: UDCA,"PCK rat (Pkhd1 mutant), bile","oral gavage, dose not given, 5 months",relative to: total bile acids,relative abundance,0.05%
COc1c(Cl)cccc1Nc1c(-c2ccncc2C#C[C@@]2(C)CCCN2C(=O)/C=C/CN(C)C)[nH]c2c1C(=O)NCC2,,,"female NOD/SCID mouse, PDX","25 mg/kg once daily, 21 days, HER2 YVMA",,tumour regression,57.9%
COCCOCCOCCNC(=O)Cc1cc(CC(=O)N[C@H]2C[C@H]3C(=O)Nc4cc(OCCOCCOCCOC)cc(n4)C(=O)N4CCC[C@H]4C(=O)Nc4cc(OCCOCCOCCOC)cc(n4)C(=O)N4CCC[C@H]4C(=O)Nc4cc(OCCOCCOCCOC)cc(n4)C(=O)N3C2)cc(CC(=O)N[C@H]2C[C@H]3C(=O)Nc4cc(OCCOCCOCCOC)cc(n4)C(=O)N4CCC[C@H]4C(=O)Nc4cc(OCCOCCOCCOC)cc(n4)C(=O)N4CCC[C@H]4C(=O)Nc4cc(OCCOCCOCCOC)cc(n4)C(=O)N3C2)c1,,"anion binding, ITC",water/methanol 70 vol% (84.0 mol%),"298 K, added: sodium sulfate",,TΔS,18.8 ± 0.1 kJ/mol
Cc1cccc(C)c1CNc1cc(C(=O)N2CCC2)cn2c(C)c(C)nc12,,esophageal lesions,rat reflux esophagitis model,"oral, 0.25 mg/kg",,inhibition,16.3%
CCC(=O)N[C@@H](C)C(=O)OCC(=O)N[C@@H](C)C(=O)O,,,water,"pH 5, 65 °C",,chain scission rate constant,0.0139 h⁻¹
COc1ccccc1C=CC(=O)Nc1ccc(-c2ccc(NC(=O)C=Cc3ccccc3OC)cc2)cc1,,carrageenan paw oedema,albino rat,"oral, 50 mg/kg, 3 h",relative to: vehicle,inhibition,29.2%
COC1CN([C@H]2CC[C@H]([C@@]3(C)Oc4c(Cl)cc(C(=O)NCc5c(SC)cc(C)[nH]c5=O)c(C)c4O3)CC2)C1,,"RNA-seq, refers to: SPP1 mouse homolog","mouse, HT-1376 xenograft, whole blood",dose not given,relative to: vehicle,log2 fold change,0.503
O=C(O)c1ccc(Nc2c(-c3ccc(CON=Cc4c(F)cccc4Oc4ccccc4)cc3)nc3cc(-c4ccccc4)ccn23)cc1,TDP1,"enzyme activity, inhibitor",,"100 µM, unpurified compound",,inhibition,73%
COc1ccc(C(=O)CCc2cc(C(CCc3ccc(O)cc3OC)c3ccc(O)cc3)c(O)cc2OC)cc1 (racemic),,,human blood,"0.3 µM, added: A23187",,12-HETE level,8610 ± 3360 pg/mL
COc1ccc(C2CC(Nc3ccc(-c4ccc(NC5=NOC(c6ccc(OC)cc6)C5)cc4)cc3)=NO2)cc1 (centres unmarked),,carrageenan paw oedema,albino rat,"oral, 50 mg/kg, 3 h",relative to: vehicle,inhibition,50.7%
C=C(NC(=O)c1csc(-c2nc3c(cc2O)-c2nc(cs2)C(=O)NC(C(C)O)C(=O)NC(=C(C)OC)c2nc(cs2)C(=O)NC2c4nc(cs4)C(=O)NC(COC(=O)c4c5c6c(cccc6n4O)COC(=O)C(OC4CC(C)(O)C(N(C)C)C(C)O4)C2OC5)c2nc-3cs2)n1)C(N)=O (centres unmarked),,,"ICR mice, Streptococcus pneumoniae ATCC 49169 infected, immunocompromised, blood","intravenous, 32 mg/kg/day once daily",,AUC(0-inf),5.02 µg·h/mL
CCOC(=O)C12CC(N)(C1)C2,,,CD-1 mouse female,"subcutaneous, 6.5 mg/mouse, 0 to 180 min",higher = stronger analgesia,tail flick latency AUC,484 a.u. and 398 a.u. and 204 a.u. and 380 a.u. and 532 a.u.
CC(C)=CCc1cc(C(=O)/C=C/c2ccc(O)cc2)c(O)cc1O,,"oxidised metabolite formation, substrate",human liver microsomes,added: NADPH,,Vmax,117 ± 9.84 pmol/min/mg
CC(C)(C)NCC(SS(=O)(=O)O)c1ccccc1 (centres unmarked),,,mouse infected with Schistosoma mansoni,"400 mg/kg, day 21 post-infection dosing once, perfusion day 52 post-infection",,spleen weight,0.21 g and 0.16 g
CC[C@H](C)[C@@H](C(=O)N[C@@H](CC(C)C)C(=O)N[C@@H](CO)C(=O)N[C@@H](CO)C(=O)N[C@H](C(=O)N[C@@H](CCC(=O)O)C(=O)N[C@H](C(=O)NCC(=O)N[C@@H](CO)C(=O)N[C@@H](CC(N)=O)C(=O)N[C@H](C(=O)N1C[C@H](O)C[C@H]1C(N)=O)[C@@H](C)O)C(C)C)[C@@H](C)O)N(C)C(=O)[C@H](C)NC(=O)CN(C)C(=O)[C@H](Cc1ccccc1)NC(=O)[C@H](CO)NC(=O)[C@H](CO)NC(=O)[C@H](CCCNC(=N)N)NC(=O)[C@H](CCC(N)=O)NC(=O)[C@H](CC(C)C)NC(=O)[C@H](Cc1ccccc1)NC(=O)[C@H](CC(=O)O)NC(=O)[C@H](C)NC(=O)[C@H](CC(C)C)NC(=O)[C@H](CCCNC(=N)N)NC(=O)[C@H](CCC(N)=O)NC(=O)[C@@H](NC(=O)[C@H](C)NC(=O)[C@@H]1CSSC[C@H](NC(=O)[C@H](CCCNC(=N)N)NC(=O)CC[C@H](NC(=O)CCCCCCCCCCCCCCCCCCC(=O)O)C(=O)O)C(=O)N[C@@H](CC(N)=O)C(=O)N[C@@H]([C@@H](C)O)C(=O)N[C@@H](C)C(=O)N[C@@H]([C@@H](C)O)C(=O)N1)[C@@H](C)O,,,male Sprague-Dawley rats,"subcutaneous, 30 nmol/kg single dose, 24 h",relative to: vehicle,food intake,75.7 ± 1.7%
COc1cccc2c(C=NOCc3ccc(-c4nc5cc(-c6ccccc6)ccn5c4Nc4ccc(C(=O)O)cc4)cc3)ccc(N(C)C)c12 (mixture of isomers),TDP1,"enzyme activity, inhibitor",,"100 µM, unpurified compound",,inhibition,59.7%
COCC1CN(C2CCN(c3cc(OC)c(Nc4ncc(Br)c(Nc5ccc6c(c5P(C)(C)=O)OCCO6)n4)cc3C)CC2)C1,,RECIST 1.1,advanced EGFR-mutant NSCLC patients,30 mg once daily,,objective response rate,0%
COc1cc2c(NC3CCN(C(C)C)CC3)cc(N3CCOCC3)nc2cc1OCCCN1CCCC1,,"TMT proteomics, refers to: SMOC1","5xFAD mice, hippocampus",dose not given,relative to: wild-type mice,log2 fold change,0.58
COc1ccc(NC(=O)c2ccc3[nH]c(-c4ccc(N(C)C)cc4)nc3c2)cn1,,,"Lewis lung carcinoma, mice, syngeneic graft, subcutaneous","intraperitoneal, 25 mg/kg daily, day 0",,tumour volume,109 mm3 and 119 mm3 and 143 mm3 and 138 mm3
CC(=O)[O-].O.[Cu+2].[O-]c1ccc(Br)cc1C=NCCN1CCOCC1,,nitric oxide scavenging,,160 µM,,inhibition,35.2%

# A few entries again:
SMILES,target or system,assay,test system,setting,how to read,measurement,value
Cc1ncsc1-c1ccc(C(C)NC(=O)C2CC(O)CN2C(=O)C(NC(=O)CCCCCCCCCCN2CCCC(Nc3ncc(Cl)c(Nc4ccccc4S(=O)(=O)C(C)C)n3)C2)C(C)(C)C)cc1 (centres unmarked),22Rv1,"RNA-seq, refers to: ZSWIM9 mRNA",,concentration not given,relative to: DMSO,log2 fold change,-3.18
CC(C)C[C@H](NC(=O)CNC(=O)[C@H](CCC(N)=O)NC(=O)[C@H](CC(C)C)NC(=O)[C@H](CC(C)C)NC(=O)[C@H](CCCNC(=N)N)NC(=O)[C@H](CCC(N)=O)NC(=O)[C@H](CC(C)C)NC(=O)[C@H](CCCNC(=N)N)NC(=O)[C@H](C)NC(=O)CNC(=O)[C@H](CCC(=O)O)NC(=O)[C@H](CCCNC(=N)N)NC(=O)[C@H](CC(C)C)NC(=O)[C@H](CCCNC(=N)N)NC(=O)[C@H](CO)NC(=O)[C@H](CC(C)C)NC(=O)[C@H](CCC(=O)O)NC(=O)[C@H](CO)NC(=O)[C@@H](NC(=O)[C@H](Cc1ccccc1)NC(=O)[C@@H](NC(=O)CNC(=O)[C@H](CC(=O)O)NC(=O)C(C)(C)NC(=O)[C@@H](N)Cc1c[nH]cn1)[C@@H](C)O)[C@@H](C)O)C(=O)N[C@@H](CC(C)C)C(=O)N[C@@H](CCC(N)=O)C(=O)NCC(=O)N[C@@H](CC(C)C)C(=O)N[C@H](C(=O)NCC(=O)N[C@@H](CCCCNC(=O)COCCOCCNC(=O)COCCOCCNC(=O)CC[C@H](NC(=O)CCCCCCCCCCCCCCCCC(=O)O)C(=O)O)C(N)=O)C(C)C,,cAMP reporter gene,"CRE-Luc mouse, stomach homogenate","subcutaneous, 300 nmol/kg, 6 h",relative to: vehicle,luciferase induction,5 fold
COc1cnc2cccc(N3CCc4c(cc(Cn5ccnc5)cc4-c4cn(C)nc4C(F)(F)F)C3=O)c2c1,,,"BALB/c nude mice, MV4-11 xenograft","intraperitoneal, 75 mg/kg, day 21",,tumour volume,143 mm3 and 138 mm3 and 141 mm3 and 151 mm3 and 127 mm3 and 134 mm3
